Measured values gathered from unrelated publications.
A part holds a random share of what one study measured. Substitutions count along the parent as printed.

Set 1
Target: Sal-like protein 4, full length isoform A (SALL4, Homo sapiens, UniProt Q9UJQ4, residues 1-1053)
Chain of UniProt Q9UJQ4 (whole entry, looked up): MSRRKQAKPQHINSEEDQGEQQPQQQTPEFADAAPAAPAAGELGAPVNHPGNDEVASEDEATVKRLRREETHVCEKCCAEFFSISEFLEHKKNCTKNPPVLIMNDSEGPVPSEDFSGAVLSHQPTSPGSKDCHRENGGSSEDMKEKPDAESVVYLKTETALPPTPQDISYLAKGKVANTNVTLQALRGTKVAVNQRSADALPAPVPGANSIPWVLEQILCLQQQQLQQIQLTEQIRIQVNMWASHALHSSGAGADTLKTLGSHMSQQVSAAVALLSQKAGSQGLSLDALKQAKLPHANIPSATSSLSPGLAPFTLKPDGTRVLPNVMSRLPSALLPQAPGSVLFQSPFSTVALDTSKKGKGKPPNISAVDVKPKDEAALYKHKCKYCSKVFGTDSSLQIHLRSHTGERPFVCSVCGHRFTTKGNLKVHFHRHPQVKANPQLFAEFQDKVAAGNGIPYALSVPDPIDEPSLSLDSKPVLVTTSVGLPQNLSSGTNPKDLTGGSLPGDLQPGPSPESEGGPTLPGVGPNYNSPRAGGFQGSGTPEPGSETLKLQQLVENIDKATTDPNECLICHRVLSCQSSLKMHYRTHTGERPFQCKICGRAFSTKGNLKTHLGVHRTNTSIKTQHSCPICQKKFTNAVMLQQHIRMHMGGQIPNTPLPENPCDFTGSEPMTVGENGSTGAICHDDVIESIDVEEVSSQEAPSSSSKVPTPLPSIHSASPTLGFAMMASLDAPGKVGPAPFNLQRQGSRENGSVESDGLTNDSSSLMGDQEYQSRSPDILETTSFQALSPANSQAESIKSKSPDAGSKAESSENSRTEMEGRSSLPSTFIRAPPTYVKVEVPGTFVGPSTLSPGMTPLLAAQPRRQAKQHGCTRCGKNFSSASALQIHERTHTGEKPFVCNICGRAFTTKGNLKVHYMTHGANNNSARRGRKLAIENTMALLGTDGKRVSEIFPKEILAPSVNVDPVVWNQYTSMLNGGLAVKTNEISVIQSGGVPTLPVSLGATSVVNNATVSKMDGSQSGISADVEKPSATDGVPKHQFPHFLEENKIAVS
Method: universal PBM
Molecule type: double-stranded DNA, one strand shown
Medium: in vitro
Tested at: 600 nM
Setting: 8-mer, flanks averaged, mean of replicates
Direction: higher = stronger binding
Sequence | E-score
CGCAAGTC | -0.237
AGTAGTAC | 0.0909
ACGCTTTC | -0.0836
CAACCTCC | -0.102
AGAGCAGG | 0.00216
GAAGTCCC | -0.204
CGATTGAG | -0.0837
CGATCCAC | -0.174
TGTTCTAA | 0.284
TCCTCCCA | 0.0301
TCTCCTCA | -0.031
GCTTACTA | 0.124
AGATGGTG | -0.0836
AGCTCCAA | 0.014
AAGTGAGT | -0.0706
GGCCGAAC | -0.399
ATACGGTC | -0.0366

Set 2
Target: Interferon regulatory factor 5, full length, phosphomimetic (IRF5, Homo sapiens, UniProt Q13568-2, residues 1-514, K96S/S451D/S453D/S456D/S462D)
Method: protein-binding microarray
Molecule type: double-stranded DNA, one strand shown
Medium: in vitro
Tested at: 250 nM
Setting: 60-bp whole probe
Together with: salmon DNA 0.4 mg/ml
Baseline: random background probes
Direction: higher = stronger binding
Constant ends, left off below: GCCTAGCAC … GTCTTGATTCGCTTGACGCTGCTG
Sequence | log fluorescence [z-score]
GACGTACTGGGTTTCGGGACGTGCTAG | 2.34
TTAAATATCGGGTTTCGATTAGTGCTA | 8.16
TCTGTTTTTGCTTTCTTTATGTGCTAG | 2.93
TGTAGTGTGTGTCTGATTATGTGCTAG | 0.0818
TTAGAACTGGGGTTTCAATTAGTGCTA | 0.546
GACGGACTTGGACTGGGGACGTGCTAG | -0.293
AGAATTTTCATTAACTGTTAGTGCTAG | 1.93
TCAAGTATGTTCCTTATTACTGTGCTA | 0.612
GACGGTCTTCTACTGCTGACGTGCTAG | -0.226
TTCGGTTTCGGTTCCGGTTAGTGCTAG | 11.1
TTAGGTCTCCTTATCCTTAAGTGCTAG | -0.217
GAACATTTCCTTTACATTCCGTGCTAG | 0.952
GCTGACACTAACACAGTGGTGTGCTAG | -0.446
TTAGTTTTCGGTCTCGGTTAGTGCTAG | 9.01
TACGATTTCAGTATCGAGACGTGCTAG | 3.72
GACGATATAGGGACTGGAGACGTGCTA | -0.199
GGCAGGCTTGCCAGTTCCCCGTGCTAG | -0.927
TCAAATGACCTTCTCAGACTGTGCTAG | -0.0514
TTAGGACTGGACTTTCGGGTAGTGCTA | 6.91
GACGAACTGGGGACTGGTGACGTGCTA | -0.4
TCATCTTTGCTTCACCCACTGTGCTAG | 0.684
GACGGTTCCGGTTTCGTGACGTGCTAG | 2.08
TACTTTCTATGTCTGTTTTTGTGCTAG | 7.3
GACGGTTTCCTTTCCGTGACGTGCTAG | 1.21

Set 3
Target: CCNA1, cyclin fold, Cln2 fusion (human)
Method: yeast growth competition, sequencing
Medium: yeast
Setting: weak parent motif
Baseline: not given
Direction: higher = stronger binding
Starting sequence: CDC25A docking peptide (human); PPHRRRLLFACSP; partner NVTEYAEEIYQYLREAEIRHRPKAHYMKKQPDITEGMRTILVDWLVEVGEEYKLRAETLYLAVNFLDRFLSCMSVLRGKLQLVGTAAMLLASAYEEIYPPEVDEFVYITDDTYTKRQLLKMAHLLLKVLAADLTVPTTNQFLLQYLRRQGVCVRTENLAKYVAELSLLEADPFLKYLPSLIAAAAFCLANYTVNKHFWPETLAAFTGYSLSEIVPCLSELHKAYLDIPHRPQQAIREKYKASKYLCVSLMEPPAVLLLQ
Variant | normalised enrichment score
H3N | 0.216
F9S | 0.529
S12W | 0.408
R6Y | -0.106
P1Q | 0.329
C11E | 0.245
S12L | 0.235
C11G | 0.262
R6L | 0.156
C11R | -0.184
L8A | 0.274
R5G | 0.543
R6T | 0.335
S12P | 0.491
A10R | 0.153
C11I | 0.308
H3K | -0.204
L7N | 0.206
L8Q | -0.0429
L7Q | 0.291
L7R | 0.288
L7V | 0.308
L8R | 0.174
R6E | 0.191
F9V | 0.255

Set 4
Target: ABI1, truncated, D143A, DHFR fusion (Arabidopsis thaliana)
Method: DHFR PCA, deep sequencing
Medium: yeast
Setting: methotrexate growth selection, single substitutions
Together with: (+)-ABA 0.032 µM
Baseline: wild-type fitted maximum
Direction: higher = stronger binding
Starting sequence: PYL1, truncated, DHFR fusion (Arabidopsis thaliana); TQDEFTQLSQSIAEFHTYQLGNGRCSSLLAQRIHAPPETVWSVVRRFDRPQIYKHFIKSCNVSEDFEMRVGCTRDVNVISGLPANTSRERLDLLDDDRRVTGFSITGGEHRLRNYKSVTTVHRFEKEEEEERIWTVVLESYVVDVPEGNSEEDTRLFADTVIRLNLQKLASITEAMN
Variant | relative binding score [%]
T160Q | -2.49
I105Q | -1.59
V76H | -3.27
S117Q | 6.99
A158M | 13.9
C72T | 5.27
E4H | 12.1
L28D | 1.45
R155C | 0.456
R46S | -1.92
T160N | 1.5
D65K | 8.44
C60Q | 1.32
E4T | 8.49
S59A | 11.5
D95Y | -1.23
Y141L | -2.54
S42G | 18.4
E125A | 43.5
G21H | 9.19
V43H | -12.4
E152C | 1.92
S150A | 9.81
R69Y | 1.76
Q31F | -1.48

Set 5
Target: RING finger protein unkempt homolog, zinc fingers 1-6, GST-SBP tag (UNK, Homo sapiens, UniProt Q9C0B0, residues 30-357)
Chain of UniProt Q9C0B0 (30-357, looked up): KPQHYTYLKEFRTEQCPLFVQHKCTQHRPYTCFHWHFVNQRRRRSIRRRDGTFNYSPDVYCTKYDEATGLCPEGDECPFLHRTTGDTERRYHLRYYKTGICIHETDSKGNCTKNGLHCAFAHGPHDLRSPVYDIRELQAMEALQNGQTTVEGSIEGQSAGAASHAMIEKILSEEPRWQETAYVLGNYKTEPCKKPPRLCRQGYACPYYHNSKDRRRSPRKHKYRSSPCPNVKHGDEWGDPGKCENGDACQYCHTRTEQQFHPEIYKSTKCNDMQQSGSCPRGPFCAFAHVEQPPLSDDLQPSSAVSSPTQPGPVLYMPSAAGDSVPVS
Method: RNA Bind-n-Seq
Molecule type: RNA
Medium: in vitro
Tested at: not given
Setting: RNA with constant flanks, human-mouse chimeric sites, ends assumed
Baseline: input RNA pool
Direction: higher = stronger binding
Constant ends, left off below: GGGAGUUCUACAGUCCGACGAUC … CAACAGAGGAUUGAGCAUCA
Sequence | bound/input enrichment [ratio]
UUGUGCAAUGAUGCUUGAGAUGGUUUUUGCAAAAGCAGAAAUCGCUGCAAGGUAAUCACAAUAGAUAAAAGUGGUAUUUUAAACCUUUGAAAUAAAUGGAUGUAACUGUACCUUGGUACA | 0.671
UCUUAACUUAUUCAUUUAACUUAUUUUUAUAGCUAGAUAAAUAUUGUUAGUCUUAGUGAGUAGUUCACAUUUUUUGAGAAGCAUGCCCUCCCUGUCCAUUUGUCUUAUAACAUGACCCAG | 16
UCUGGUCACACUCGUGUGUAUGGUGUUUGCUUUGUGGACACUUCACUGGGCAAGUUUUUCAUCGGCCAGUUUUCAGAUGAUCGCCAUUGUUCCAGAUUUAGGACGCUAGUGGCUCACUAU | 0.29
AUGGAGAAGGAUUCUCUGCCUCGCUUUGUGCGCUCUGAGUUUUAUCAGGAGCUAAUCAAGUAGUCAUCUGGUCAGGCUUCCAAAAGUUGCCCUGUGAGUUGAGUUACAUCCUUUGUAGCA | 0.147
UUGAAAACAAACUGAUUCAAGUUUGAAUAUCACAAUGUUAGCUUUCUAAUUCCAUAAAAGUACUUGGUUUUUACAGUUUAUAAUCUGACAUCACCCCAGCGCCAUUUGUAAAGAGCAACU | 0.427
UACUCAACUUUCUUGCCACGUUUUGAAUUCCAAGACAUUAUUCCUCCAGAUGACUUCCUAACGAGUGAUGAAGAGCAAGAUUUGGUUUUAUUUGGAACUAUGAGAGGUCAUGUGGUUGGA | 0.147
GCUCUUGGCAAUGUAAUCAGCGCCUUGGGAGACAAGAGCAAGAGAGCCACCCAUGUCCCUUACAGAGACUCUAAGCUGACAAGACUCUUGCAGGAUUCCCUUGGGGGUAACAGCCAAACC | 0.107
UCCCAAAUCCAGCAGCUAGAAGGAGCCUUGAGACAAACACUCCACACACAGGGAAGGCGAUAACAUUGUACAUUGGUUUACAUUUUUUCCCCCUGUGUUUUCUAGGGGAGGUCAUAGUGC | 0.447
CCCCAAUACCAUUUGCAGGUCUGGAACUGCACUCUCUUUUUUAAAAAACAUGUAUACAUUUUAGGGCUGUAGAUUUACUUUCCUAUUUUCUUUUCCAAUUGCUGACUUUUGAGCACAGAA | 4.51
CACAGAGCAGCACCUACCCCCUCCUCCUUUCCACACCUGCAAACUCUUUUGCCUGGGCUGAAUAUUUAGUGUUAAUUCAUCUCAGCUUUGAGGGCUCCUGUGGCAAAUUCCCGGAUUAAA | 0.522
CCUCCCCCGGGCCACCCACCCCUCCCGCUCCCAGCGGGAGAUCCAGGUUUCUUCUUAUUUCAUAGCAAAUAAGAAAAAUGUUCUACGCACAUUUUGUCCUCAGUAAACGAGGGCCUCUGG | 0.328

Excerpt of the above (set 1):
Sequence | E-score
AGTAGTAC | 0.0909
ACGCTTTC | -0.0836
CAACCTCC | -0.102
AGAGCAGG | 0.00216
GAAGTCCC | -0.204
CGATTGAG | -0.0837
